Measured values of several laboratories.
Protocols differ between the studies behind these lines. Several values in a cell are separate wells, animals, samples, runs or records. Numbers after ± are the reported error.
Voltage-dependent P/Q-type calcium channel subunit alpha-1A: Voltage-dependent P/Q-type calcium channel subunit alpha-1A (Homo sapiens, UniProt O00555)
Rab GDP dissociation inhibitor beta with Rab1A: Rab GDP dissociation inhibitor beta, with Rab1A (Homo sapiens, UniProt P50395)
A-type voltage-gated potassium channel KCND3: A-type voltage-gated potassium channel KCND3 (Rattus norvegicus, UniProt Q62897)

`Fc1ccc([C@@H]2CCNC[C@H]2COc2ccc3c(c2)OCO3)cc1` gave an inhibition of 101% (Voltage-dependent P/Q-type calcium channel subunit alpha-1A; ion current, antagonist; HEK293; 30 µM).
`Cc1cc(-c2ccnc3[nH]cc(F)c23)cc(F)c1[C@@]1(O)[C@H](C)CN(C2CCS(=O)(=O)CC2)C[C@@H]1C` gave an inhibition of 87.8% (PIK3C3 (Homo sapiens, UniProt Q8NEB9); ATP probe binding, KiNativ, measured: ATP site; HEK293T cell lysate; 10 µM).
With `Cn1cc(-c2cnc3ccc(NC(=O)Nc4ccc(F)c(Br)c4)cc3n2)cn1` the inhibition was 5.1% (MAP3K4 (Homo sapiens, UniProt Q9Y6R4); kinase binding, KiNativ profiling, measured: Lys1 peptide; PANC-1 lysate; 1.25 µM).
`O=C(N[C@@H](c1ccccc1)[C@H]1CCCN1)C1=CN(c2ncnc3[nH]ccc23)CCS1` gave an inhibition of greater than 50% (JAK family kinases (human); kinase activity, inhibitor, radiometric kinase; 50 nM, with: ATP 10 µM).
For `O=C(OC[C@H]1O[C@@H](OC(=O)c2cc(O)c(O)c(O)c2)[C@H](OC(=O)c2cc(O)c(O)c(O)c2)[C@@H](OC(=O)c2cc(O)c(O)c(O)c2)[C@@H]1OC(=O)c1cc(O)c(O)c(O)c1)c1cc(O)c(O)c(O)c1`, inhibition read “inhibited” (PDIA6 (Homo sapiens, UniProt Q15084); di-eosin-GSSG reductase activity; 20 µM, 15 min).
`Cc1cc(C)cc(COc2cc3c(cc2OCc2cc(C)cc(C)c2)[C@H]2C[C@](O)(Cc4cn(Cc5ccc(C#N)cc5)nn4)C[C@H](C)N2CC3)c1` gave an inhibition of 93.1% (Rab GDP dissociation inhibitor beta with Rab1A; GDI2-Rab1A interaction, NanoLuc complementation; 6.25 µM).
With `O=C(C[C@@H](C(F)F)n1ccc(F)n1)N1CCC(O)(Cn2cnc3c(cnn3-c3ccc(F)cc3)c2=O)CC1` the inhibition was 52.5% and 37.8% (USP7 (Homo sapiens, UniProt Q93009); enzyme activity, inhibitor; 0.005 µM).
`C=CC(=O)Nc1ccc(CCn2cc(C[C@@]3(O)C[C@@H]4c5cc(OCc6cc(C)cc(C)c6)c(OCc6cc(C)cc(C)c6)cc5CCN4[C@@H](C)C3)nn2)cc1` has an inhibition of 92.4% (Rab GDP dissociation inhibitor beta with Rab1A; GDI2-Rab1A interaction, NanoLuc complementation; 6.25 µM).
`COc1ccc(F)cc1C(=O)NCc1ccc(-c2nn([C@@H](C)C(F)(F)F)c(N)c2C(N)=O)cc1` has an inhibition of -62.8% (GSK3B (Homo sapiens, UniProt P49841); target engagement, competitive chemoproteomics; human PBMCs; 0.1 µM).
`CN(C(=O)n1cnc(-c2ccc[n+]([O-])c2)c1)C1CCCCC1` has an inhibition of 11.4% (TACR1 (Homo sapiens, UniProt P25103); 10 µM).
For `C#Cc1cc(-c2cc(Nc3nc(N[C@@H](C)c4ccc(F)cn4)ncc3Cl)n[nH]2)ccc1C=O`, the inhibition was 101% (PDGFRB (Homo sapiens, UniProt P09619); enzyme activity, inhibitor; 0.2 µM).
With `O=C1CC2(CCCC2)CC(=O)N1CCCCN1CCN(c2ncccn2)CC1` the inhibition was 20% (Voltage-dependent P/Q-type calcium channel subunit alpha-1A; ion current, antagonist; HEK293; 30 µM).
`[2H]c1cc(C)c(NC(=O)c2cnc(Nc3cc(N4CCCCC4)nc(C)n3)s2)c(Cl)c1` has an inhibition of greater than 90% (EPHA1 (Homo sapiens, UniProt P21709); 0.01 µM).
`Cc1cc(-c2ccnc3[nH]cc(F)c23)cc(F)c1[C@@]1(O)[C@H](C)CN(C(=O)CN)C[C@@H]1C` has an inhibition of 1.2% (STK38L (Homo sapiens, UniProt Q9Y2H1); ATP probe binding, KiNativ, measured: Lys2 site; HEK293T cell lysate; 1 µM).
`CC(=O)O[C@H]1C(=O)[C@@]2(C)[C@H]([C@H](OC(=O)c3ccccc3)[C@]3(O)C[C@H](OC(=O)[C@H](O)[C@@H](NC(=O)c4ccccc4)c4ccccc4)C(C)=C1C3(C)C)[C@]1(OC(C)=O)CO[C@@H]1C[C@@H]2O` has an inhibition of 7% (Voltage-dependent P/Q-type calcium channel subunit alpha-1A; ion current, antagonist; HEK293; 30 µM).
With `Cc1cc(C)cc(COc2cc3c(cc2OCc2cc(C)cc(C)c2)[C@H]2C[C@](O)(Cc4cn(Cc5ccc(Cl)c(Cl)c5)nn4)C[C@H](C)N2CC3)c1` the inhibition was 92.4% (Rab GDP dissociation inhibitor beta with Rab1A; GDI2-Rab1A interaction, NanoLuc complementation; 6.25 µM).
With `CCc1oc2ccccc2c1C(=O)c1cc(Br)c(O)c(Br)c1` the inhibition was 49.2% and 100% and 48.1% (SLC22A12 (Homo sapiens, UniProt Q96S37, F360A); urate uptake; HEK293T; 0.5 µM, 10 min, 37 °C, with: 200 µM [14C]urate).
With `Cc1cc(C)cc(COc2cc3c(cc2OCc2cc(C)cc(C)c2)[C@H]2C[C@](O)(Cc4cn(-c5ccccc5)nn4)C[C@H](C)N2CC3)c1` the inhibition was 93.9% (Rab GDP dissociation inhibitor beta with Rab1A; GDI2-Rab1A interaction, NanoLuc complementation; 6.25 µM).
`CCN(c1cc(C#CCN2CCOCC2)cc(C(=O)NCc2c(C)cc(C)[nH]c2=O)c1C)[C@H]1CC[C@H](N(C)CCOC)CC1` gave an inhibition of 93 ± 11% (EZH2 (Homo sapiens, UniProt Q15910); enzyme activity, inhibitor; 1 µM, with: nucleosome substrate).
The inhibition of `COc1cc(C(=O)NS(=O)(=O)c2ccccc2C)ccc1Cc1cn(C)c2ccc(NC(=O)OC3CCCC3)cc12` is reported as 97.5% and 71.7% and 97.2% and 95.8% and 62.2% and 59.6% (LRRC8A/LRRC8C (Homo sapiens, UniProt Q8IWT6+Q8TDW0); ion current, whole-cell patch clamp; HCT116 LRRC8-/- with LRRC8A/LRRC8C heteromer; 100 µM, at +100 mV).
With `O=C(CSc1nc2nccnc2c(=O)n1CCc1ccccc1)Nc1nccs1` the inhibition was 34% (Phosphatidylinositol 4,5-bisphosphate 3-kinase catalytic subunit alpha isoform, with p85 alpha (PIK3CA, Homo sapiens, UniProt P42336, E542K); 10 µM, E542K with PIK3R1).
`N[C@@H](Cc1ccc(O)c(O)c1)C(=O)O` gave an inhibition of 7% (Voltage-dependent P/Q-type calcium channel subunit alpha-1A; ion current, antagonist; HEK293; 10 µM).
With `CCc1nn(C)c2nc(-c3ccc(C(=O)O)cc3)nc(NCc3ccc(F)cc3)c12` the inhibition was 49% (PDE4B (Homo sapiens, UniProt Q07343); enzyme activity; 10 µM, with: [3H]cAMP).
`O=C(NC1CCC1)[C@H](Cc1c[nH]c2ccccc12)NC(=O)[C@H](CCCCNC(=S)NCCc1nnn[nH]1)NS(=O)(=O)c1cccc(F)c1` gave an inhibition of less than 0% (SIRT2 (Homo sapiens, UniProt Q8IXJ6); deacylase activity; 10 µM, with: NAD+ 500 µM).
With `CN(C)CCCN1c2ccccc2Sc2ccc(Cl)cc21` the inhibition was 97% (Voltage-dependent P/Q-type calcium channel subunit alpha-1A; ion current, antagonist; HEK293; 10 µM).
`CN1CCN(c2cc(-c3ccncc3)c(-c3ccc4ccccc4c3)nn2)CC1` has an inhibition of -9.3% (F2RL3 (Homo sapiens, UniProt Q96RI0); antagonist, FLIPR; 10 µM).
The inhibition of `Cc1ccc(C(=O)Nc2ccc3ccccc3c2)o1` is reported as 5.7% and 10.9% and 7.1% and 6.3% and 5.1% (A-type voltage-gated potassium channel KCND3; ion current, inhibitor, whole-cell patch clamp; 10 µM).
For `CC(=O)Oc1ccccc1C(=O)O`, the inhibition was 11% (Voltage-dependent P/Q-type calcium channel subunit alpha-1A; ion current, antagonist; HEK293; 10 µM).
With `O=C(Nc1cccc2c(=O)cc(-c3nnn[nH]3)oc12)c1ccc(OCCCCc2ccccc2)cc1` the inhibition was 65.1% and 78% and 84.2% and 85.5% and 90.8% and 87.2% (LRRC8A/LRRC8C (Homo sapiens, UniProt Q8IWT6+Q8TDW0, L134K/L136K); ion current, whole-cell patch clamp; LRRC8-/- HCT cells; 10 µM, L134K/L136K mutant, +100 mV).
The inhibition of `CC[C@@H]1[C@H](F)C(=O)N[C@@H]1COc1nccc2cc(C(N)=O)c(OC)cc12` is reported as 0.7% (TLK2 (Homo sapiens, UniProt Q86UE8); ATP-site probe binding, ActivX profiling; THP-1 cell lysate; 0.01 mM, Lys2 site).
`CCN1CCN(Cc2ccc(NC(=O)c3ccc(C)c(/C=C/c4cnc5[nH]ccc5c4OC)c3)cc2C(F)(F)F)CC1` gave an inhibition of -19.1% (ATR (Homo sapiens, UniProt Q13535); A-375; 5 µM).
With `NC/C(=C\F)COc1cccc(Cn2c(=S)[nH]c(=O)c3[nH]cnc32)c1` the inhibition was less than 50% (mouse phorbol ester receptor; radioligand binding; 10 µM).
`Cc1nn(-c2nc3c(F)cc(F)cc3s2)c(O)c1C(c1ccc(C(F)(F)F)cc1)c1c(C)nn(-c2nc3c(F)cc(F)cc3s2)c1O` has an inhibition of 93.1% (CGAS (Homo sapiens, UniProt Q8N884); enzyme activity, inhibitor, pyrophosphatase-coupled; 50 µM, 1.5 h, with: HT-DNA).
For `Cc1cc(C)cc(COc2cc3c(cc2OCc2cc(C)cc(C)c2)[C@H]2C[C@](O)(Cc4cn(Cc5cccc6ccccc56)nn4)C[C@H](C)N2CC3)c1`, the inhibition was 95.8% (Rab GDP dissociation inhibitor beta with Rab1A; GDI2-Rab1A interaction, NanoLuc complementation; 6.25 µM).
`CCCN1C[C@H](CSC)C[C@@H]2c3cccc4[nH]cc(c34)C[C@H]21` gave an inhibition of 34% (Voltage-dependent P/Q-type calcium channel subunit alpha-1A; ion current, antagonist; HEK293; 30 µM).
The inhibition of `CC(C)c1noc2ncc(C(=O)c3ccccc3O)cc12` is reported as 12.9% (A-type voltage-gated potassium channel KCND3; ion current, whole-cell patch-clamp; 10 µM, rKv4.3).
For `CNCCC(Oc1ccc(C(F)(F)F)cc1)c1ccccc1.Cl` (stereo not shown), the inhibition was 26% (Voltage-dependent P/Q-type calcium channel subunit alpha-1A; ion current, antagonist; 10 µM).
The inhibition of `Cc1c(-c2ccccc2)oc2c(C(=O)OCCN3CCCCC3)cccc2c1=O` is reported as ~14% and 14.4% (Anoctamin-1 (Ano1, Mus musculus, UniProt Q8BHY3); ion current, inhibitor; HEK293 transfected; 30 µM, at +80 mV).
`C=CC(=O)Nc1ccc(Cn2cc(C[C@@]3(O)C[C@@H]4c5cc(OCc6cc(C)cc(C)c6)c(OCc6cc(C)cc(C)c6)cc5CCN4[C@@H](C)C3)nn2)cc1` gave an inhibition of 92.7% (Rab GDP dissociation inhibitor beta with Rab1A; GDI2-Rab1A interaction, NanoLuc complementation; 6.25 µM).
`OO` gave an inhibition of 3 ± 7% (Histone acetyltransferase RTT109, with Vps75 (Saccharomyces cerevisiae, UniProt Q07794); enzyme activity, inhibitor; 62.5 µM, Rtt109-Vps75 complex, no DTT, with: [3H]acetyl-CoA).

For quick reference, copied from above:
The inhibition of `CC(C)c1noc2ncc(C(=O)c3ccccc3O)cc12` is reported as 12.9% (A-type voltage-gated potassium channel KCND3; ion current, whole-cell patch-clamp; 10 µM, rKv4.3).
For `CNCCC(Oc1ccc(C(F)(F)F)cc1)c1ccccc1.Cl` (stereo not shown), the inhibition was 26% (Voltage-dependent P/Q-type calcium channel subunit alpha-1A; ion current, antagonist; 10 µM).
The inhibition of `Cc1c(-c2ccccc2)oc2c(C(=O)OCCN3CCCCC3)cccc2c1=O` is reported as ~14% and 14.4% (Anoctamin-1 (Ano1, Mus musculus, UniProt Q8BHY3); ion current, inhibitor; HEK293 transfected; 30 µM, at +80 mV).
`C=CC(=O)Nc1ccc(Cn2cc(C[C@@]3(O)C[C@@H]4c5cc(OCc6cc(C)cc(C)c6)c(OCc6cc(C)cc(C)c6)cc5CCN4[C@@H](C)C3)nn2)cc1` gave an inhibition of 92.7% (Rab GDP dissociation inhibitor beta with Rab1A; GDI2-Rab1A interaction, NanoLuc complementation; 6.25 µM).
